Results of several laboratories.
Protocols differ between the studies behind these lines. ± marks the error that the study gave.

Compound | test | test system | setting | scale | measurement | result
O=C(NCCCN(CCCCN(CCCNC(=O)c1cccc(=O)n1[O-])C(=O)c1cccc(=O)n1[O-])C(=O)c1cccc(=O)n1[O-])c1cccc(=O)n1[O-].[89Zr+4] | radio-TLC | PBS | 7 d, pH 7.4, 37 °C, together with: Zn^2+ 10-fold excess |  | intact complex | 98.3 ± 2.4%
COC(=O)c1ccc(-c2cn(Cc3cc(Cl)ccc3O[11CH3])nn2)cc1 | PET, Logan plot, t*=40 min | rhesus monkey, brain Insula | dose not given |  | distribution volume | 0.548 mL/cm³
CC(C)[C@H](NC(=O)CNC(=O)[C@H](CCC(N)=O)NC(=O)[C@H](C)N)C(=O)O | LC-MS/MS | human, male, plasma | intravenous, 30 mg/kg three times daily, day 3, first dose, 10 min infusion, geometric mean |  | clearance | 867 mL/min/kg
N=C(N)NCCC[C@@H]1NC(=O)[C@H](Cc2c[nH]c3ccccc23)NC(=O)[C@@H](CC2CCCCC2)NC(=O)[C@@H]2CCCN2C(=O)[C@@H](NC(=O)CCc2ccccc2)CCCNC1=O |  | C57BL/6J mice, brain | intravenous, 1 mg/kg, two-compartment model |  | distribution rate constant k12 | 19.8 h⁻¹
O=c1c(Cc2ccccc2)nc2ccccc2n1Cc1cn(-c2ccc(S(=O)(=O)Nc3ncccn3)cc2)nn1 | MTT | rat primary colonocytes, Albino rat, male | 72 h, concentration at 100% viability |  | safe concentration | 0.124 ± 0.007 µM
CC/C=C\C/C=C\C/C=C\C/C=C\C/C=C\CCCCOC(CC)C(=O)O (stereo not drawn) | [14C] label | Wistar rat, muscle | dose not given, 3 day |  | radioactivity concentration | not detected
CC(C)CCN(c1nc(C#N)nc(NC2COC2)n1)C(C)c1ccc(F)cc1 (stereo not drawn) |  | female CD-1 mice | intraperitoneal, 10 mg/kg, 7 h |  | plasma concentration | 11.4 ng/mL
CCCC(CCC)NC(=O)c1ccc(OC2OC(C(=O)O)C(O)C(O)C2O)c(O)c1 (stereo not drawn) |  | female Sprague-Dawley rats, plasma | oral, 200 mg/kg of parent drug | reference: 200 over 20 mg/kg dose | Cmax ratio | 3.05
O=c1ccn([C@@H]2O[C@H](CO)[C@@H](O)[C@H]2F)c(=O)[nH]1 |  | human liver S9 | 10 µM, 1 h, 37 °C |  | metabolic stability | stable
NCCCC(=O)OCC(=O)c1c(F)cc(O)cc1F.O=C(O)C(F)(F)F | photolysis, refers to: disappearance of compound | unbuffered water |  |  | quantum yield | 0.16
[11CH3]c1ccc2nc(C3CCC3)n(-c3ccc4[nH]ncc4c3)c2n1 | extrapolated from mouse | standard human, Lower large intestine wall |  |  | absorbed dose | 5.5 µSv/MBq
CC(C)c1cnc(-c2cc(Cl)ccc2F)cc1Nc1ccncc1C(=O)NC(CO)CO | monotherapy, refers to: rash | human patients | oral, dose not given, grade 2, phase I A |  | patients with treatment-related adverse event | 0%
C=C(c1ncc(C(=O)O)cn1)c1cc2c(cc1C)C(C)(C)CCC2(C)C |  | Sprague-Dawley rat, male | oral, 100 mg/kg, 2 h, sesame oil vehicle |  | blood cholesterol | 92 ± 17.5 mg/dL
CCc1cc(Nc2nc(-c3ccc(-n4cnc(C)c4)c(F)c3)cs2)c(C)cc1C |  | human, both sexes, plasma | oral, 400 mg, day 1, multiple dose, geometric mean |  | terminal half-life | 6.5 h
Nc1ncnc2c1nc(-n1nnc3c1CCC1C(CO)C1CC3)n2C1CC(O)C(CO)O1 (mixture of isomers) |  | methanol |  |  | brightness | 0.25 M⁻¹ cm⁻¹
NCCCC(=O)OCC(=O)c1ccc(O)cc1F.O=C(O)C(F)(F)F | photolysis, refers to: rearranged acid appearance | aqueous HEPES buffer with LiClO4 | pH 7.3 |  | quantum yield | 0.19
N#Cc1ccc(-c2cc(=O)c3ccc4[nH]c(C(F)(F)F)nc4c3o2)cc1 |  |  |  |  | hepatocyte stability | stable
CC(C)(O)c1ncc([S@](N)(=O)=NC(=O)Nc2c3c(cc4c2CCC4)CCC3)s1 |  | healthy human | oral, 10 mg once daily, day 14, capsule formulation, geometric mean |  | AUC(0-tau) | 11200 ng·h/mL

Compound | test | test system | setting | scale | measurement | result
C#CCOc1ccc(/C=C2\SC(=O)N(CC(=O)NCc3ccccc3)C2=O)cc1 | inverse Kirkwood-Buff integrals | binary solvent mixture | 298.15 K, mole fraction x1 0.80 |  | Kirkwood-Buff integral G1,3 | -259 cm³/mol
NC12CNCCNCC(NCc3ccc(CNC(=O)CCCC(=O)NCc4ccc(-c5nncnn5)cc4)cc3)(CNCCNC1)CNCCNC2.[64Cu+2] | OLINDA dosimetry | kidneys | 48 h pretargeting interval, together with: huA33-TCO pretargeting |  | mean absorbed dose | 0.0538 rad/mCi
CC(C)C[C@@H](NC(=O)[C@H](NC(=O)[C@H]1CCCN1)[C@H](C)O)C(=O)N[C@H](Cc1c[nH]cn1)C(=O)N[C@@H](C(=O)N[C@H](Cc1c[nH]cn1)C(=O)N[C@H](CC(N)=O)C(=O)N[C@H](CCCNC(=N)N)C(=O)N[C@H](CCCNC(=N)N)C(=O)N[C@H](CCCNC(=N)N)C(=O)N[C@H](CCCNC(=N)N)C(=O)N[C@H](CCCNC(=N)N)C(N)=O)[C@H](C)O |  | Beagle dog, CSF | oral, 50 mg/kg |  | AUC(0-tlast) | 614 ± 592 ng·h/mL
CC(F)C(=O)NCCOCCOCCOCC(=O)N[C@@H](CCC(=O)NCCCC[C@@H]1NC(=O)[C@@H](Cc2ccc(O)cc2)NC(=O)[C@H](CC(=O)O)NC(=O)CNC(=O)[C@H](CCCNC(=N)N)NC1=O)C(=O)NCCCC[C@@H]1NC(=O)[C@@H](Cc2ccc(O)cc2)NC(=O)[C@H](CC(=O)O)NC(=O)CNC(=O)[C@H](CCCNC(=N)N)NC1=O (stereo partly drawn) [fluorine-18 labelled] |  | female athymic nude mouse, U-87 MG xenograft, kidney | dose not given, 1 h |  | kidney uptake | 2.5 ± 0.4 %ID/g
CNC(CC(C)C)C(=O)NC1C(=O)NC(CC(N)=O)C(=O)NC2C(=O)NC3C(=O)NC(C(=O)NC(C(=O)NCCCNC(=N)N)c4cc(O)cc(O)c4-c4cc3ccc4O)C(O)c3ccc(c(Cl)c3)Oc3cc2cc(c3OC2OC(CO)C(O)C(O)C2OC2CC(C)(NCc3ccc(-c4ccc(Cl)cc4)cc3)C(O)C(C)O2)Oc2ccc(cc2Cl)C1O (stereo not drawn) |  | mice | intravenous, 10 mg/kg |  | clearance | 1.5 mL/min/kg
COc1cc(NC(C)=O)c2c(c1O)-c1c(OC)c(OC)cc3c1C(C2)N(C)CC3 (stereo not drawn) |  | rat heart homogenate | 100 µg/mL, 24 h, room temperature, post-preparative storage |  | remaining compound | 95.4 ± 3.2%
CCCC[C@H](NC(C)=O)C(=O)N[C@H]1CC(=O)NCCCC[C@@H](C(=O)N[C@@H](C(=O)N2CCC[C@@H]2C(N)=O)C(C)C)NC(=O)[C@H](Cc2c[nH]c3ccccc23)NC(=O)[C@H](CCCN=C(N)N)NC(=O)[C@@H](Cc2ccc3ccccc3c2)NC(=O)[C@@H]2CCCN2C1=O |  | healthy dogs, plasma | subcutaneous, 2.25 mg/kg per day, day 1, 12 h post-dose, median |  | plasma histamine | 14.3 ng/mL
CC[C@H](C)[C@H](NC(=O)[C@H](CC(C)C)NC(=O)[C@H](Cc1c[nH]c2ccccc12)NC(=O)[C@H](C)NC(=O)[C@@H](NC(=O)[C@H](Cc1ccccc1)NC(=O)[C@H](CC(=O)O)NC(=O)[C@H](CCCNC(=N)N)NC(=O)[C@H](C)NC(=O)[C@H](C)NC(=O)[C@H](CC(C)C)NC(=O)[C@H](C)NC(=O)[C@H](CC(=O)O)NC(=O)[C@H](CC(C)C)NC(=O)[C@@H](NC(=O)[C@@H](NC(=O)[C@H](C)NC(=O)[C@H](CC(C)C)NC(=O)[C@H](CCC(=O)O)NC(=O)[C@H](CO)NC(=O)[C@H](CO)NC(=O)[C@H](Cc1ccccc1)NC(=O)[C@@H](NC(=O)CNC(=O)[C@H](CCC(=O)O)NC(=O)CNC(=O)[C@@H](N)Cc1c[nH]cn1)[C@@H](C)O)[C@@H](C)O)[C@@H](C)CC)[C@@H](C)CC)C(=O)N[C@@H](C)C(=O)N[C@H](C(=O)N[C@@H](CCCCN)C(=O)N[C@H](C(=O)N[C@H](C(=O)N[C@@H](CC(=O)O)C(=O)N[C@@H](CCCCN)C(=O)O)[C@@H](C)O)[C@@H](C)CC)[C@@H](C)O |  | healthy human subjects, plasma | subcutaneous, 10 mg once weekly, day 36 after 6 doses, steady state, mean |  | terminal half-life | 255 h
CC(C)CCN(Cc1ccc(F)cc1)c1nc(C#N)nc(N2CCOCC2)n1 |  | female CD-1 mice | intraperitoneal, 10 mg/kg, 4 h |  | plasma concentration | 7.4 ng/mL
COc1ccc(/C=C/c2ccc(-c3ccc(C)cn3)nc2)cc1 | TCSPC | water, HEPES 100 mM | pH 7.4, zinc-free ligand |  | radiative decay rate constant | 0.04 ns⁻¹
Cn1c(=O)oc2ccc(-c3ccc(CC(C#N)NC(=O)C4CNCCCO4)c(F)c3)cc21 (stereo not drawn) |  | human | oral, 40 mg once daily, TEAE, multiple ascending dose |  | abdominal pain incidence | 0%
Cc1ccc(/N=N/c2c(O)ccc3ccccc23)c(C)c1 |  | rat whole blood extract | 0.5 µg/L, 30 days, -20 °C, long-term storage |  | stability deviation | -1.6%
COc1ccc2cc(-c3ccc(-c4ccc(C)cn4)nc3)oc2c1 | TCSPC | dioxane |  |  | radiative decay rate constant | 0.53 ns⁻¹
Oc1ccc2ccccc2c1/N=N/c1ccccc1 |  | rat whole blood QC samples | 5.0 µg/L, 8 h, room temperature, short-term stability |  | measured concentration | 5.01 µg/L
CC(C)[C@H](NC(=O)[C@@H]1CCCN1C(=O)[C@H](CCCNC(=N)N)NC(=O)[C@H](CS)NC(=O)[C@H](Cc1c[nH]c2ccccc12)NC(=O)[C@H](CCCNC(=N)N)NC(=O)[C@@H](Cc1ccccc1)NC(=O)[C@H](Cc1c[nH]cn1)NC(=O)[C@H](CCC(=O)O)NC(=O)[C@H](CS)NC(=O)[C@H](CS)NC(=O)CNC(=O)[C@@H]1CC(=O)N[C@@H](CCCNC(=N)N)C(=O)NCC(=O)N[C@@H](CC(=O)O)C(=O)N[C@H](Cc2ccc(O)cc2)C(=O)N1)C(N)=O [technetium-99m labelled] |  | C57 mouse, female, B16/F1 melanoma | intravenous, 0.037 MBq, 4 h | reference: tumour over liver | tumour to tissue ratio | 2.91
C[N+]1(CC(=O)OC2CCCCCCCCCCC2)CCCCC1 |  | mouse, plasma | intraperitoneal, 1 mg/kg, single dose |  | Tmax | 4.98 min
CC[C@H](C)[C@H](NC(=O)[C@H](N)Cc1ccc(O)cc1)C(=O)N[C@H]1CSSC[C@@H](C(=O)N(C)[C@H](C(N)=O)[C@@H](C)CC)NC(=O)[C@H](CCCNC(=N)N)NC(=O)[C@H](Cc2c[nH]cn2)NC(=O)[C@H](C)NC(=O)CN(C)C(=O)[C@H](Cc2c[nH]c3ccccc23)NC(=O)[C@H](CC(=O)O)NC(=O)[C@H](CCC(N)=O)NC(=O)[C@H](Cc2cn(C)c3ccccc23)NC(=O)[C@H](C(C)C)NC1=O |  | cynomolgus monkey plasma, SPE extract | room temperature and 4 °C |  | stability time | ≥ 48 h
C=C(C)C(=O)Nc1ccc(-c2c(-c3ccc(Oc4nccc(C)n4)cc3)c3c(N)ncnc3n2C)cc1 |  | beagle dog, plasma | intravenous |  | half-life | 0.61 h

A few entries again:
Compound | test | test system | setting | scale | measurement | result
O=c1c(Cc2ccccc2)nc2ccccc2n1Cc1cn(-c2ccc(S(=O)(=O)Nc3ncccn3)cc2)nn1 | MTT | rat primary colonocytes, Albino rat, male | 72 h, concentration at 100% viability |  | safe concentration | 0.124 ± 0.007 µM
CC/C=C\C/C=C\C/C=C\C/C=C\C/C=C\CCCCOC(CC)C(=O)O (stereo not drawn) | [14C] label | Wistar rat, muscle | dose not given, 3 day |  | radioactivity concentration | not detected
CC(C)CCN(c1nc(C#N)nc(NC2COC2)n1)C(C)c1ccc(F)cc1 (stereo not drawn) |  | female CD-1 mice | intraperitoneal, 10 mg/kg, 7 h |  | plasma concentration | 11.4 ng/mL
CCCC(CCC)NC(=O)c1ccc(OC2OC(C(=O)O)C(O)C(O)C2O)c(O)c1 (stereo not drawn) |  | female Sprague-Dawley rats, plasma | oral, 200 mg/kg of parent drug | reference: 200 over 20 mg/kg dose | Cmax ratio | 3.05
O=c1ccn([C@@H]2O[C@H](CO)[C@@H](O)[C@H]2F)c(=O)[nH]1 |  | human liver S9 | 10 µM, 1 h, 37 °C |  | metabolic stability | stable
